Measurements gathered from unrelated publications.
Lines come from different studies, so protocols differ.
Organism: Pseudomonas aeruginosa

Structure (SMILES) | assay | system | setting | MIC
CC(C)C[C@@H]1NC(=O)[C@@H](CC(C)C)NC(=O)[C@H](CCN)NC(=O)[C@@H](NC(=O)[C@H](CCN)NC(=O)[C@@H](NC(=O)CCOCCOCCOCCN=[N+]=[N-])[C@@H](C)O)CCNC(=O)[C@H]([C@@H](C)O)NC(=O)[C@H](CCN)NC(=O)[C@H](CCN)NC1=O | broth microdilution | ATCC 25922, cation-adjusted Mueller-Hinton broth | – | 111 µM
CC[C@H](C)[C@H](NC(=O)[C@@H](CCCNC(=N)N)NC(=O)[C@H](CCCNC(=N)N)NC(=O)[C@@H]1CCCN1C(=O)[C@@H]1CCCN1C(=O)[C@H](CCCNC(=N)N)NC(=O)[C@@H]1CCCN1C(=O)[C@H](CCCNC(=N)N)NC(=O)[C@@H]1CCCN1C(=O)[C@H](CC(C)C)NC(=O)[C@H](Cc1c[nH]c2ccccc12)NC(=O)[C@@H]1CCCN1C(=O)[C@@H]1CCCN1C(=O)[C@H](CCCCN)NC(=O)[C@H](CC(=O)O)NC(=O)[C@@H](N)C(C)C)C(=O)N[C@@H](Cc1ccc(O)cc1)C(=O)N[C@@H](CC(N)=O)C(=O)N[C@H](CCCNC(=N)N)C(N)=O | broth microdilution | DSM 1117 | 18 h, 37 °C, 25% MHB2 | 64 µg/mL
CC(C)C[C@H](NC(=O)[C@H](CC(C)C)NC(=O)[C@H](CCCCN)NC(=O)[C@H](Cc1ccccc1)NC(=O)[C@@H](NC(=O)[C@H](CCCNC(=N)N)NC(=O)[C@H](CCCCN)NC(=O)[C@H](Cc1c[nH]c2ccccc12)NC(=O)[C@@H](NC(=O)[C@@H](N)CCCNC(=N)N)C(C)C)C(C)C)C(=O)N[C@@H](CCCCN)C(=O)N[C@@H](CCCNC(=N)N)C(=O)N[C@@H](Cc1ccc(O)cc1)C(=O)N[C@@H](Cc1c[nH]c2ccccc12)C(=O)N[C@@H](CCCNC(=N)N)C(N)=O | broth microdilution | 10145 | – | 15 µg/mL
O=C(c1ccccc1O)c1[nH]c(Cl)c(Cl)c1-n1c(C(=O)c2ccccc2O)cc(Cl)c1Cl | microbial growth | ATCC27853 | – | > 64 µM
N=C(N)NCCC[C@H](NC(=O)[C@H](CCCNC(=N)N)NC(=O)[C@H](Cc1ccccc1)NC(=O)[C@H](CO)NC(=O)[C@H](Cc1ccccc1)NC(=O)[C@H](Cc1c[nH]c2ccccc12)NC(=O)[C@H](Cc1ccccc1)NC(=O)[C@H](CO)NC(=O)[C@H](Cc1ccccc1)NC(=O)[C@H](CCCNC(=N)N)NC(=O)[C@@H](N)CCCNC(=N)N)C(N)=O | broth microdilution | 27853, Mueller-Hinton broth | 24 h, 37 °C, lowest concentration, 95% inhibition, together with: BSA | 128 µM
CC(C)C[C@H](NC(=O)[C@H](CCCCN)NC(=O)C1CCC=CCCC(NC(=O)[C@H](CCCCN)NC(=O)[C@@H](N)CC(C)C)C(=O)N[C@@H](CCCCN)C(=O)NC2CCC=CCCC(NC(=O)[C@H](CCCCN)NC(=O)CNC(=O)[C@H]3CCCN3C(=O)[C@H](CCCCN)NC2=O)C(=O)N[C@@H](CCCCN)C(=O)N1)C(N)=O (stereo partly shown) | broth microdilution | ATCC 9027, Mueller-Hinton broth | 18 h, 37 °C | 64 µM
CN[C@H](CC(C)C)C(=O)N[C@H]1C(=O)N[C@@H](CC(N)=O)C(=O)N[C@H]2C(=O)N[C@H]3C(=O)N[C@H](C(=O)N[C@H](C(=O)N[C@@H](CCCNC(=N)N)C(N)=O)c4cc(O)cc(O)c4-c4cc3ccc4O)[C@H](O)c3ccc(c(Cl)c3)Oc3cc2cc(c3O[C@@H]2O[C@H](CO)[C@@H](O)[C@H](O)[C@H]2O[C@H]2C[C@](C)(NCc3ccc(OCc4cn(CC(=O)N[C@H](C(=O)N[C@@H](CCN)C(=O)N[C@H]5CCNC(=O)[C@H]([C@@H](C)O)NC(=O)[C@H](CCN)NC(=O)[C@H](CCN)NC(=O)[C@H](CC(C)C)NC(=O)[C@@H](CC(C)C)NC(=O)[C@H](CCN)NC5=O)[C@@H](C)O)nn4)c(OC)c3)[C@H](O)[C@H](C)O2)Oc2ccc(cc2Cl)[C@H]1O | broth microdilution | ATCC 27736, cation-adjusted Mueller-Hinton broth | – | 6 µM
CC(=O)N[C@H](Cc1ccc(C(F)(F)F)cc1)C(=O)N[C@@H](CCN)C(=O)N[C@H](C(=O)N[C@@H](CCN)C(=O)N[C@H]1CCNC(=O)[C@H]([C@@H](C)O)NC(=O)[C@H](CCN)NC(=O)[C@H](CCN)NC(=O)[C@H](CC(C)C)NC(=O)[C@@H](Cc2ccccc2)NC(=O)[C@H](CCN)NC1=O)[C@@H](C)O | broth microdilution | PAO1, colistin-susceptible | – | 0.25 to 0.5 µg/mL
CC(C)C[C@@H]1NC(=O)[C@@H](CC(C)C)NC(=O)[C@H](CCN)NC(=O)[C@@H](NC(=O)[C@H](CCN)NC(=O)[C@@H](NC(=O)CN=[N+]=[N-])[C@@H](C)O)CCNC(=O)[C@H]([C@@H](C)O)NC(=O)[C@H](CCN)NC(=O)[C@H](CCN)NC1=O | broth microdilution | ATCC 35218, cation-adjusted Mueller-Hinton broth | – | 63 µM
CC[C@H](C)[C@H](NC(=O)[C@@H](CCCNC(=N)N)NC(=O)[C@H](CCCNC(=N)N)NC(=O)[C@H](CO)NC(=O)[C@H](Cc1c[nH]c2ccccc12)NC(=O)[C@H](CCCNC(=N)N)NC(=O)[C@@H]1CCCN1C(=O)[C@H](CCCNC(=N)N)NC(=O)[C@@H]1CCCN1C(=O)[C@H](CC(C)C)NC(=O)[C@H](Cc1ccc(O)cc1)NC(=O)[C@@H]1CCCN1C(=O)[C@@H]1CCCN1C(=O)[C@H](CCCCN)NC(=O)[C@H](CC(=O)O)NC(=O)[C@@H](N)C(C)C)C(=O)N[C@@H](Cc1ccc(O)cc1)C(=O)N[C@@H](CC(N)=O)C(=O)N[C@H](CCCNC(=N)N)C(N)=O | broth microdilution | DSM 1117 | 18 h, 37 °C, 25% MHB2 | 128 µg/mL
